Results of several laboratories.
Lines come from different studies, so protocols differ. ± gives the spread as reported.
CYP27A1: Sterol 26-hydroxylase, mitochondrial (CYP27A1, Homo sapiens, UniProt Q02318)
UniProt Q02318, sequence (whole entry, looked up): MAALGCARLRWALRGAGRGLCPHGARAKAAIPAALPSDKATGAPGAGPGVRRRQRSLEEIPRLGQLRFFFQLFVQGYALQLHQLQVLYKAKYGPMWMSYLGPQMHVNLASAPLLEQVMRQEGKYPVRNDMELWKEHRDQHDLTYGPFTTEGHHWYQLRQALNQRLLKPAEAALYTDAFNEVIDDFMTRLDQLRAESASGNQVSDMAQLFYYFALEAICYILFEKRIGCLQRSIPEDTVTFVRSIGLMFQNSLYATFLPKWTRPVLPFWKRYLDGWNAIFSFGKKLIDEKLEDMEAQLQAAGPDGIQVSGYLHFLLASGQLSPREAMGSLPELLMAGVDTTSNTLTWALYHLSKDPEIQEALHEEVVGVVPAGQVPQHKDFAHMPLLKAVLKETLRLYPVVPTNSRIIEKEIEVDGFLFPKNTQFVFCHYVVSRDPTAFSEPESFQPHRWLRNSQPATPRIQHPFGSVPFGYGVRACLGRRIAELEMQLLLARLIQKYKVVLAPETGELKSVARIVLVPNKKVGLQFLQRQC
KCNH2: Voltage-gated inwardly rectifying potassium channel KCNH2 (KCNH2, Homo sapiens, UniProt Q12809)
UniProt Q12809, sequence (whole entry, looked up): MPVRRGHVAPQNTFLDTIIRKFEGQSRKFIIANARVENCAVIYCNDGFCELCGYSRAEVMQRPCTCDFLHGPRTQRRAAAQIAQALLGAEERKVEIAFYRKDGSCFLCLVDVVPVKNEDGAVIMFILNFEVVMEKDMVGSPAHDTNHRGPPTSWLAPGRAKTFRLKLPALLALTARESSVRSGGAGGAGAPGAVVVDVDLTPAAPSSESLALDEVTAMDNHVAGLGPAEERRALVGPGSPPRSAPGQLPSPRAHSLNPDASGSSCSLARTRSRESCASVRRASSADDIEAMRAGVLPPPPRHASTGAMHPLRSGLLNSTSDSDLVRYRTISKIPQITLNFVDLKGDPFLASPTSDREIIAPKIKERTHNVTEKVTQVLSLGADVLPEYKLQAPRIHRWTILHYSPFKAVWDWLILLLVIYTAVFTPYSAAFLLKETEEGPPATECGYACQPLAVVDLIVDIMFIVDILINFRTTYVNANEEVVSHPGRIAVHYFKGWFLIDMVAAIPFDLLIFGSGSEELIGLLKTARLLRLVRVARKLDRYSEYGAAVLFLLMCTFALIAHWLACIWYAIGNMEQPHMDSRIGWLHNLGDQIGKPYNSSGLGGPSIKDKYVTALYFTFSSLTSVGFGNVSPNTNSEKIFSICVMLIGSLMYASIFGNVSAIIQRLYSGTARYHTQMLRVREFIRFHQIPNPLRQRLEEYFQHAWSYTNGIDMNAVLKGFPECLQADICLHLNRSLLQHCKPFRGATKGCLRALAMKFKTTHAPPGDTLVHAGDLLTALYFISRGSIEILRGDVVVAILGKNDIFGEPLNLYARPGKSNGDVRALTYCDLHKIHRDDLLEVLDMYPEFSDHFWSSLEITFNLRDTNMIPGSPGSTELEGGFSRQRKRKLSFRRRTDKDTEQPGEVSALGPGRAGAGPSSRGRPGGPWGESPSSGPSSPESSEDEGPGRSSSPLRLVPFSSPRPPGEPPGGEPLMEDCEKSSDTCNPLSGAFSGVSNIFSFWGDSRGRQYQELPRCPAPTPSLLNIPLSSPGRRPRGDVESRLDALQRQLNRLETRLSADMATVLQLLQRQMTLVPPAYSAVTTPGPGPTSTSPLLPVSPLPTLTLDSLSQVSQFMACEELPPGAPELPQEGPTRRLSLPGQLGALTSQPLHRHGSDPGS
UniProt P00760, sequence (whole entry, looked up): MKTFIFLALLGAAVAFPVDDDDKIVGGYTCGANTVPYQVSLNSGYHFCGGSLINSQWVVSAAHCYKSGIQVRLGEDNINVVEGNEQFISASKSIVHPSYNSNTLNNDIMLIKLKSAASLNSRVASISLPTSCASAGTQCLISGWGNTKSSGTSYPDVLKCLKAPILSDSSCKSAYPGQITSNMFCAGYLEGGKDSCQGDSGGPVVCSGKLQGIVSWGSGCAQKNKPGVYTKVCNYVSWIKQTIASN
UniProt P10635, sequence (whole entry, looked up): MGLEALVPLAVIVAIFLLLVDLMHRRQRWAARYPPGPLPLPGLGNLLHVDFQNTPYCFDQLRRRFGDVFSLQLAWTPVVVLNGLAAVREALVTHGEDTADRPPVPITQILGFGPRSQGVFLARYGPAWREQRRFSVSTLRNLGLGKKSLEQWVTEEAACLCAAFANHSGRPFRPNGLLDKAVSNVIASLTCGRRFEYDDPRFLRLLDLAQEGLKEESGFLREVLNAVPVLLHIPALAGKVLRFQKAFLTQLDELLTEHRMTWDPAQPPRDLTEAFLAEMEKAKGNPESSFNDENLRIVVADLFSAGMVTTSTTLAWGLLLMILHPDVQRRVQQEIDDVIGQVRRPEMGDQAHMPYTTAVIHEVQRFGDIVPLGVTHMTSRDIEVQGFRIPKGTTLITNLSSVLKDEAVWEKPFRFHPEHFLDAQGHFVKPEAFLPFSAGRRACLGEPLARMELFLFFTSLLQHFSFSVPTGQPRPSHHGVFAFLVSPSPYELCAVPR
UniProt P11980, sequence (whole entry, looked up): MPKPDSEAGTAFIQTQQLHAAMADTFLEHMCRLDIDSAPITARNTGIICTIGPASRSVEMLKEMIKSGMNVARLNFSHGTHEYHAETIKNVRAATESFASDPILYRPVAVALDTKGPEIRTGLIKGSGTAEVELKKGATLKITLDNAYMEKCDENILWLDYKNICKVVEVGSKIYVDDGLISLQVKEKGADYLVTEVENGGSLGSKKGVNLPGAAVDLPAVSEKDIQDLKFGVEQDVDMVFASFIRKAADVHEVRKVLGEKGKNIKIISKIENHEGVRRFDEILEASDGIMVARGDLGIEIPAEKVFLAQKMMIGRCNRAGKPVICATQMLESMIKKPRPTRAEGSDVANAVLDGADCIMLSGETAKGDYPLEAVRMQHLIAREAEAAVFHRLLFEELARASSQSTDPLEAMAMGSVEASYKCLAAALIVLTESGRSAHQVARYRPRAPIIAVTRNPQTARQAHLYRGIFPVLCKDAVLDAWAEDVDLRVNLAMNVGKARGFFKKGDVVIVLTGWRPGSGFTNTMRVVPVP
UniProt P20813, sequence (whole entry, looked up): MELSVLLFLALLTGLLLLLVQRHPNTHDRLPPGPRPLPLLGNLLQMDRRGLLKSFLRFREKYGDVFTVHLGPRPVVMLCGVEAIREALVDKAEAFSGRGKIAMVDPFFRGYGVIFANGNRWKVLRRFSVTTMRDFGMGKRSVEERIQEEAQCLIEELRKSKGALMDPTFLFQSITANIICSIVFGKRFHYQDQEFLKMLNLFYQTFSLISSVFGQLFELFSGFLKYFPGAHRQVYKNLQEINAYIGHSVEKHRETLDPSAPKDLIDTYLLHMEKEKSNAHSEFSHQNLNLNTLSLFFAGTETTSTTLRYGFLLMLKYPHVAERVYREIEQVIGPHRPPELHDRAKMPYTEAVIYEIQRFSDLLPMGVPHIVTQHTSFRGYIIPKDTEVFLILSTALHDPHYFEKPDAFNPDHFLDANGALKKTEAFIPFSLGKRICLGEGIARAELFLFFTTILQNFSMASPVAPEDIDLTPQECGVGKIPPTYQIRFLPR
UniProt P08684, sequence (whole entry, looked up): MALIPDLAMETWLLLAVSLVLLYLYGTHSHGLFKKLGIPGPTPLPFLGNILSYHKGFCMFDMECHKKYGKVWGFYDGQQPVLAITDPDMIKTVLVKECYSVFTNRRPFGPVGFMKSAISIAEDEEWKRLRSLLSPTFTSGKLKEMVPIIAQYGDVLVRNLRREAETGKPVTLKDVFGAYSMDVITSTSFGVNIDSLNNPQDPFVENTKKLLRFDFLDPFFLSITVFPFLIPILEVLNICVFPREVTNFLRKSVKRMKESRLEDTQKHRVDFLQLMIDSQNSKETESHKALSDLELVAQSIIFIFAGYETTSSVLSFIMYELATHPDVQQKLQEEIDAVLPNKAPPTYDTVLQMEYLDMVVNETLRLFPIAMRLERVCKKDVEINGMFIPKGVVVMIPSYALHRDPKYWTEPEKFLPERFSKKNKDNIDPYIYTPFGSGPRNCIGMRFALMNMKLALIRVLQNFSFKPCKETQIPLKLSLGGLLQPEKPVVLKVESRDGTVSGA
UniProt Q9CPV9, sequence (whole entry, looked up): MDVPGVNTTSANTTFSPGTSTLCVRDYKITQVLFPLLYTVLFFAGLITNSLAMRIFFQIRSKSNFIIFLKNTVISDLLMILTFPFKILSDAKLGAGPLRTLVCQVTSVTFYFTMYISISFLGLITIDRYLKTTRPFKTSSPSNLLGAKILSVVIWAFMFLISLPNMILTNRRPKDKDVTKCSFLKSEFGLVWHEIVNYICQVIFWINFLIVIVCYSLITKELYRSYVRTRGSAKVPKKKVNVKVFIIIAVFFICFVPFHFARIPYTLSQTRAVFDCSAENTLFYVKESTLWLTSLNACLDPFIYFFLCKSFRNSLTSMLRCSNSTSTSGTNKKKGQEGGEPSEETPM
UniProt P16257, sequence (whole entry, looked up): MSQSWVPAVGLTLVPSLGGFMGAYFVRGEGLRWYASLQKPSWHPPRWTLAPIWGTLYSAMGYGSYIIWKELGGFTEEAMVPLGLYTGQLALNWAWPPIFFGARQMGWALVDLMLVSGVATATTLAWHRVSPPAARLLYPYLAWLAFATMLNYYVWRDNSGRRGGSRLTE

| SMILES | target | test | test system | setting | quantity | value |
| --- | --- | --- | --- | --- | --- | --- |
| COC(=O)CC[C@@H](NC(=O)[C@@H](Cc1ccc(OP(=O)(O)O)cc1)NC(=O)[C@@H](Cc1ccccc1)NC(=O)[C@@H](Cc1ccccc1)NC(=O)Cc1ccc2ccccc2c1)C(=O)OC | carboxylesterase | substrate | HepG2 | 200 µM, 24 h | ester hydrolysis | 26% |
| COc1cc(-c2nc3ccccc3s2)cc(CN(Cc2ccccn2)Cc2ccccn2)c1O | Cu2+ | UV-vis pH titration |  | M2+ + L- = [ML]+ complex | log K | 22 |
| CCc1nc(N)nc(N)c1C#C[C@H](C)c1cc(-c2ccncc2)ccc1OC | Cytochrome P450 2D6 (CYP2D6, Homo sapiens, UniProt P10635) | enzyme activity, inhibitor, fluorescence |  |  | IC50 | 1.6 µM |
| C=C1CCC(O)CC1=CC=C1CCCC2(C)C1CCC2C(C)(O)CCCCCC (stereo not shown) | CYP27A1 | substrate |  | 50 µM, 3 h, 0.45% cyclodextrin, 1 µM enzyme | number of products | 5 |
| [64Cu+2].c1cnc(CNCc2ccc(CN3CCCN4CCNCCCN(CC4)CC3)cc2)nc1 | CXCR4 (human) |  | NOD/SCID mice, U87 xenografts, U87 control tumour | 450 min post-injection | tissue uptake | 5.82 ± 1.32 %ID/g |
| CC[C@H](C)[C@@H]1NC(=O)[C@H](Cc2c[nH]c3ccccc23)NC(=O)[C@H](CCCN)NC(=O)CNC(=O)[C@H]2CCCN2C(=O)[C@H](C(C)C)NC(=O)[C@H](CCCCN)NC(=O)[C@H](C(C)C)NC(=O)[C@@H](NC(=O)[C@H](CCCNC(=N)N)NC(C)=O)CCCCn2cc(nn2)C[C@@H](C(=O)N[C@@H](CCC(N)=O)C(N)=O)NC1=O | Serine protease 1 (PRSS1, Bos taurus, UniProt P00760) | proteolytic degradation, substrate, HPLC |  | 0.25 mM, pH 7.6, 37 °C | half-life | 0.0278 days |
| [64Cu+2].c1ccc(CNCc2ccc(CN3CCCN4CCNCCCN(CC4)CC3)cc2)nc1 | CXCR4 |  | NOD/SCID mouse, U87 and U87-stb-CXCR4 xenografts, spleen | iv, 90 min, no blocking dose, ex vivo | tissue uptake | 11.6 ± 0.86 %ID/g |
| COc1cc2c(CCNC(C)=O)c[nH]c2cc1OS(=O)(=O)O | Abcg2 (mouse) |  | FVB/N Abcg2-/- male mice, small intestinal content | oral, 10 mg/kg melatonin, 1 h | concentration | 1240 ± 230 ng/g |
| CC(C)C[C@H](NC(=O)[C@@H]1CCCN1C(=O)[C@H](CCCNC(=N)N)NC(=O)CNC(=O)[C@H](CCCCNC(=O)CN1CCN(CC(=O)O)CCN(CC(=O)O)CCN(CC(=O)O)CC1)NC(=O)CC[C@@H]1NC(=O)[C@@H](Cc2ccccc2)NC(=O)[C@H](CC(=O)O)NC(=O)CNC(=O)[C@H](CCCNC(=N)N)NC1=O)C(=O)N[C@H](C(=O)N[C@@H](Cc1ccc(O)cc1)C(=O)O)C(C)C [copper-64 labelled] | MMP2 (Homo sapiens, UniProt P08253) | substrate, radio-HPLC |  |  | peptide cleavage | no effect |
| Cc1cccc(Cn2ncc3c4cc(F)c(CN(C)C)cc4n(C)c3c2=O)n1 | Pyruvate kinase PKM (Rattus norvegicus, UniProt P11980) | enzyme activity, activator | rat, retina | intravitreal, 10 µM vitreous concentration | half-life of slow phase | 57.8 days |
| Cc1cccc(C)c1NC(=O)CC(C)NCc1cccc2ccccc12 (stereo not shown) | KCNH2 | tail current inhibition, patch clamp | tsA201 transfected with KCNH2 | 0.2% DMSO | Hill coefficient | 0.77 ± 0.13 |
| CCC(=O)N(C)c1ccc(Cl)c(Cl)c1 | KCNH2 | ion current, inhibitor, patch clamp | HEK293 | 1 µM | inhibition | 1.44% |
| C=C1CCC(O)CC1=CC=C1CCCC2(C)C1CCC2C(C)(O)c1ccccc1 (stereo not shown) | CYP27A1 | substrate |  | 50 µM, 3 h, 0.45% cyclodextrin, 1 µM enzyme | substrate conversion | 0% |
| CNC(=O)c1ccc(N2CCN(Cc3ccc4nc(C)c(=O)[nH]c4c3F)CC2)c([18F])n1 | Poly [ADP-ribose] polymerase 1 (Macaca mulatta, UniProt H9FQ77) | PET | male rhesus monkeys, caudate nucleus | intravenous, dose not given, baseline | radioactivity uptake | 0.88 SUV |
| C/C=C/C[C@@H](C)[C@@H](O)[C@H]1C(=O)N[C@@H](CC)C(=O)N(C)C(Cc2ccc(C(=O)NCCCCCCNC(=O)CCCCC[P+](c3ccccc3)(c3ccccc3)c3ccccc3)cc2)C(=O)N(C)[C@@H](CC(C)C)C(=O)N[C@@H](C(C)C)C(=O)N(C)[C@@H](CC(C)C)C(=O)N[C@@H](C)C(=O)N[C@H](C)C(=O)N(C)[C@@H](CC(C)C)C(=O)N(C)[C@@H](CC(C)C)C(=O)N(C)[C@@H](C(C)C)C(=O)N1C (stereo partly shown) | calcineurin | phosphatase activity, phosphate release |  | 720 nM, together with: complex with cyclophilin A | inhibition | -5% |
| CCc1cc(C)n2nc(-c3ccc(OCC[18F])cc3)c(CC(=O)N(CC)CC)c2n1 | Tspo (Rattus norvegicus, UniProt P16257) | two-tissue compartment model | rat C6 glioma model, tumor | 60 min dynamic PET | K1/k2 ratio | 3.05 mL/cm3 |
| COc1ccc2cc(NC(=O)c3cc(-c4ccncc4)nc4ccccc34)ccc2c1 | Cytochrome P450 3A4 (CYP3A4, Homo sapiens, UniProt P08684) | substrate, LC-MS, item: metabolites M1 plus M2 | baculosomes |  | Km | 0.6 µM |
| N#Cc1cc(C(=O)OCC[18F])c(C(F)(F)F)nc1N1CCN(C(=O)Cc2ccccc2)CC1 | P2Y purinoceptor 12 (P2ry12, Mus musculus, UniProt Q9CPV9) | PET | aged mouse, 60 weeks, brain | 11.1 MBq, 60 min | SUV | 0.45 ± 0.06 |
| COc1ccc(NC(=O)CN2c3cccc4cccc(c34)S2(=O)=O)cc1OCc1ccncc1 | KCNH2 | ion current, inhibitor |  |  | IC50 | > 30 µM |
| C=CC(=O)Nc1cc(Nc2nccc(-c3cn(C)c4ccccc34)n2)c(OCC(F)(F)F)nc1N(C)CCN(C)C | Cytochrome P450 2B6 (CYP2B6, Homo sapiens, UniProt P20813) | enzyme activity, inhibitor | human, liver microsomes | 0.33 µM | activity vs control | 97.5% |
| C/C=C/C[C@@H](C)[C@@H](O)[C@H]1C(=O)N[C@@H](CC)C(=O)N(C)C(Cc2ccc(C(=O)NCCOCCNC(=O)CC[P+](c3ccccc3)(c3ccccc3)c3ccccc3)cc2)C(=O)N(C)[C@@H](CC(C)C)C(=O)N[C@@H](C(C)C)C(=O)N(C)[C@@H](CC(C)C)C(=O)N[C@@H](C)C(=O)N[C@H](C)C(=O)N(C)[C@@H](CC(C)C)C(=O)N(C)[C@@H](CC(C)C)C(=O)N(C)[C@@H](C(C)C)C(=O)N1C (stereo partly shown) | calcineurin | phosphatase activity, phosphate release |  | 720 nM, together with: complex with cyclophilin A | inhibition | 4% |
| COc1cc(-c2nc3ccccc3s2)cc(CN(C)Cc2ccccn2)c1O | Cu2+ | UV-vis pH titration |  | M2+ + HL = [MHL]+ complex | log K | 5.3 |

Some of these lines once more:
| SMILES | target | test | test system | setting | quantity | value |
| --- | --- | --- | --- | --- | --- | --- |
| CCc1cc(C)n2nc(-c3ccc(OCC[18F])cc3)c(CC(=O)N(CC)CC)c2n1 | Tspo (Rattus norvegicus, UniProt P16257) | two-tissue compartment model | rat C6 glioma model, tumor | 60 min dynamic PET | K1/k2 ratio | 3.05 mL/cm3 |
| CC[C@H](C)[C@@H]1NC(=O)[C@H](Cc2c[nH]c3ccccc23)NC(=O)[C@H](CCCN)NC(=O)CNC(=O)[C@H]2CCCN2C(=O)[C@H](C(C)C)NC(=O)[C@H](CCCCN)NC(=O)[C@H](C(C)C)NC(=O)[C@@H](NC(=O)[C@H](CCCNC(=N)N)NC(C)=O)CCCCn2cc(nn2)C[C@@H](C(=O)N[C@@H](CCC(N)=O)C(N)=O)NC1=O | Serine protease 1 (PRSS1, Bos taurus, UniProt P00760) | proteolytic degradation, substrate, HPLC |  | 0.25 mM, pH 7.6, 37 °C | half-life | 0.0278 days |
